Results gathered from unrelated publications.
± marks the error that the study gave.
FLT3 ITD: Receptor-type tyrosine-protein kinase FLT3 (FLT3, Homo sapiens, UniProt P36888, ITD)
GSTO1: Glutathione S-transferase omega-1 (GSTO1, Homo sapiens, UniProt P78417)
Sequence of UniProt P78417 (whole entry, looked up): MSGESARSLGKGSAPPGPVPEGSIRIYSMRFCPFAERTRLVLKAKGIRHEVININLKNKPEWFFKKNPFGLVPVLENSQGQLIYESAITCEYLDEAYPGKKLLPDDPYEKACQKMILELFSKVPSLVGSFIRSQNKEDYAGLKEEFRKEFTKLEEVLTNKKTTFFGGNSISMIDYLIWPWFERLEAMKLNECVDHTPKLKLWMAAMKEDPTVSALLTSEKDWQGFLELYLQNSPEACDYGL
Succinate dehydrogenase complex: Succinate dehydrogenase complex (Sus scrofa, UniProt A5GZW8+D0VWV4+Q007T0+Q0QF01)
Sequence of UniProt D0VWV4 (whole entry, looked up): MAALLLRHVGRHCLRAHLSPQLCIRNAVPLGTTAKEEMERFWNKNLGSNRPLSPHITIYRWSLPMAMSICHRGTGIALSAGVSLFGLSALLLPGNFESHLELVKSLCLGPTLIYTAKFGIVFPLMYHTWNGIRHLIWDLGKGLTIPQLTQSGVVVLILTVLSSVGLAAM
Sequence of UniProt Q0QF01 (whole entry, looked up): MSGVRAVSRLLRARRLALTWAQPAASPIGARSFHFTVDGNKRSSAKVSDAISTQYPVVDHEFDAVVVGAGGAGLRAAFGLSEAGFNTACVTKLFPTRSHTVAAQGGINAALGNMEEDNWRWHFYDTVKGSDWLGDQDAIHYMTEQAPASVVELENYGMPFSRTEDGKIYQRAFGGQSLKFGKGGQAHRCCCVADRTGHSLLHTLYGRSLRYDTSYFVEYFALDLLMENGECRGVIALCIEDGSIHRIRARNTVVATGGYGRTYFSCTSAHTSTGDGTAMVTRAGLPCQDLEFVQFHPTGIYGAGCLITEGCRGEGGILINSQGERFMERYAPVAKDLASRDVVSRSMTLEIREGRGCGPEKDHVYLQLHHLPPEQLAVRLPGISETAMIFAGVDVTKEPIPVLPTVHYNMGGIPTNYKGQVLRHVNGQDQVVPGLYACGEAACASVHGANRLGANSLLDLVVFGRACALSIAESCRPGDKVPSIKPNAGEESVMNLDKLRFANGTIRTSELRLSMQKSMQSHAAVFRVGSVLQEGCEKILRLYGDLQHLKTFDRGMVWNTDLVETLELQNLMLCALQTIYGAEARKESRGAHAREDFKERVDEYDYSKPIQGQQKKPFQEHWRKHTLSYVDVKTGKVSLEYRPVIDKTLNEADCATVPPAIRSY
Sequence of UniProt A5GZW8 (whole entry, looked up): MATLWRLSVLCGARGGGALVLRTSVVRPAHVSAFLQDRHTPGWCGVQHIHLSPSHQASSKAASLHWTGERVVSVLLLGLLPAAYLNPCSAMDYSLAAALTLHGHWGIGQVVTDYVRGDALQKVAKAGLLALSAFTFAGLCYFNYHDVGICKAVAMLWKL
Sequence of UniProt Q007T0 (whole entry, looked up): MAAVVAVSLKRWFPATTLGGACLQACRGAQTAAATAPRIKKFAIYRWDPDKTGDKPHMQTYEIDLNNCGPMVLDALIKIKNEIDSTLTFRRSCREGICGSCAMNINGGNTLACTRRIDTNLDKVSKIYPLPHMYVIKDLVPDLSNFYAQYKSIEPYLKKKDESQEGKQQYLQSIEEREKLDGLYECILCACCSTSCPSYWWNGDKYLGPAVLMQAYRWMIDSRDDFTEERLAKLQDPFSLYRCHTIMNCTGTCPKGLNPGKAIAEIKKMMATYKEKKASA
AGER: Advanced glycosylation end product-specific receptor (AGER, Homo sapiens, UniProt Q15109)
Sequence of UniProt Q15109 (whole entry, looked up): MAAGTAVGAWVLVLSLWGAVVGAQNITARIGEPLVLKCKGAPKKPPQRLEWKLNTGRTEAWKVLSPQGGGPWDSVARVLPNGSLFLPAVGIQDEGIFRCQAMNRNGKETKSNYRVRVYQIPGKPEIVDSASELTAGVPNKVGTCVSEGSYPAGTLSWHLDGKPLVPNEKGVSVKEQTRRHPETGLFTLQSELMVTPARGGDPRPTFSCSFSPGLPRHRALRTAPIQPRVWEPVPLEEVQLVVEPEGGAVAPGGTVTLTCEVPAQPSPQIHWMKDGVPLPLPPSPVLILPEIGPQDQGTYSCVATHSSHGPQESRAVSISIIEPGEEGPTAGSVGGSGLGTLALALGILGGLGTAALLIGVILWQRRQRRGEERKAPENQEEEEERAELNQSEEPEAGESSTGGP
Sequence of UniProt P50750 (whole entry, looked up): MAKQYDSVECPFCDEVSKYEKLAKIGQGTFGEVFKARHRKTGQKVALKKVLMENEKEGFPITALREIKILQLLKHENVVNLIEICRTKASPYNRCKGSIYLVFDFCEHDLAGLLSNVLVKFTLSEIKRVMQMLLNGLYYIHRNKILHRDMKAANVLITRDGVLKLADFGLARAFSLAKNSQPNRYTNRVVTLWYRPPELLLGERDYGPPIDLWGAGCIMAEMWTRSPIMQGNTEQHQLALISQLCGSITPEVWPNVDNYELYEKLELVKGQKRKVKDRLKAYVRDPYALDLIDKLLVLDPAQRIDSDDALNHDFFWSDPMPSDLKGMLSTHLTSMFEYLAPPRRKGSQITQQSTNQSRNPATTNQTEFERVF
Sequence of UniProt Q9Y3R4 (whole entry, looked up): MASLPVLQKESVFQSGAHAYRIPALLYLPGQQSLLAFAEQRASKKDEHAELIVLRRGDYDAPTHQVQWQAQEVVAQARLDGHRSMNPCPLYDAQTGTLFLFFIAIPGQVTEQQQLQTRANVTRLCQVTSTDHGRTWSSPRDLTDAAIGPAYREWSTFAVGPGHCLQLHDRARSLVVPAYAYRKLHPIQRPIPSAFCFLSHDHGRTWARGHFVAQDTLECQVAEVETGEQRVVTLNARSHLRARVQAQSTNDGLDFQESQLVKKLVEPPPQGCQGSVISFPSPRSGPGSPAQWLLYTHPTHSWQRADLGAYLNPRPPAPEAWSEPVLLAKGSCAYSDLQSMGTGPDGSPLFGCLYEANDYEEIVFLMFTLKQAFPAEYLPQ
Sequence of UniProt P19643 (whole entry, looked up): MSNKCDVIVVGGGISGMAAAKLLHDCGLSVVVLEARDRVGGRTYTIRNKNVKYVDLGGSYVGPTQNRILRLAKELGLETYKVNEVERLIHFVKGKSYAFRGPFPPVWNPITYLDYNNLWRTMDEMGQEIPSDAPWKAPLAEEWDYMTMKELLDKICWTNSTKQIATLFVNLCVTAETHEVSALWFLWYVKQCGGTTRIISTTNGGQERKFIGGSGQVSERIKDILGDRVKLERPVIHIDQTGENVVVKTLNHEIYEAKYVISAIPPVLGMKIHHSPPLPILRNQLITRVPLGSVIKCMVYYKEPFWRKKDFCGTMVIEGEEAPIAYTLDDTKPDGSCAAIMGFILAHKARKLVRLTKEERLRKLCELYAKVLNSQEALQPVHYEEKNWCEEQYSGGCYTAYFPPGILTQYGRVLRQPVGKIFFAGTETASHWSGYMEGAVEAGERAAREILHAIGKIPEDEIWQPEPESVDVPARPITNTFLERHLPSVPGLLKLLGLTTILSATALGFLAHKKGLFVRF
Sequence of UniProt P21397 (whole entry, looked up): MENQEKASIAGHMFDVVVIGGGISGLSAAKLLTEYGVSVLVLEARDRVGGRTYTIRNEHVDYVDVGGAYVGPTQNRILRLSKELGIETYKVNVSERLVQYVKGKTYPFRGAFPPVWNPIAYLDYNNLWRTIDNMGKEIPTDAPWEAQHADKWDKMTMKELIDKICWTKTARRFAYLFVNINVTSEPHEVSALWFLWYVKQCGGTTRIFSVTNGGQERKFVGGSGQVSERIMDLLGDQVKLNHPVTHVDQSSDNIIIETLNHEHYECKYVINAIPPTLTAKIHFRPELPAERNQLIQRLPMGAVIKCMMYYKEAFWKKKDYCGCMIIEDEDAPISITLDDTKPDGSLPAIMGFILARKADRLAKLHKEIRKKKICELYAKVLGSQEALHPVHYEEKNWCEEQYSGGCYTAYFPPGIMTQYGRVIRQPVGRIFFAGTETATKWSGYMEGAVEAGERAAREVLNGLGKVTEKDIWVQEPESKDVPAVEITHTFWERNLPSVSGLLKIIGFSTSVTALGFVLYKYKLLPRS
Sequence of UniProt Q04760 (whole entry, looked up): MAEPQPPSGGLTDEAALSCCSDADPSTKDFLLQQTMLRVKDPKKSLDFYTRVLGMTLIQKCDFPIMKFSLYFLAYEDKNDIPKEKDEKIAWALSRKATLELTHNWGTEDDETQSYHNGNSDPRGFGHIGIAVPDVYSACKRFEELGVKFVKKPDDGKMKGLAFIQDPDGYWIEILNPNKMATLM

| Structure (SMILES) | target | test | test system | conditions | inhibition |
| --- | --- | --- | --- | --- | --- |
| Cc1n[nH]c(C)c1-c1nc2ccc3[nH]ncc3c2c2c1CCCC2 | FLT3 ITD | enzyme activity, inhibitor, ADP detection |  | 0.1 µM | 54% |
| O=C(NC1CCCCC1)C(c1cccnc1)N(C(=O)CCl)c1ccc(F)cc1 (racemic) | GSTO1 | probe labelling, inhibitor, competitive ABPP | MDA-MB-435 | 1 µM, 1 h, 10% serum | 100% |
| COc1ncccc1C(=O)Nc1ccccc1Nc1ccccc1 | Succinate dehydrogenase complex | enzyme activity, double-antibody sandwich ELISA |  | 1 µM | 33% |
| Nc1nc(Nc2ccccc2)sc1C(=O)c1ccccc1 | MAP2K1 (Homo sapiens, UniProt Q02750) | enzyme activity, inhibitor |  | 10 µM | > 90% |
| C#CCSc1nc(Sc2nnnn2-c2ccccc2)c2nnn(Cc3ccccc3Cl)c2n1 | MAOA (Homo sapiens, UniProt P21397) | enzyme activity, inhibitor, luciferase |  | 10 µM | ~40% |
| CC(C)C[C@H](NC(=O)CNC(=O)c1cc(Cl)ccc1Cl)B(O)O | Proteasome subunit beta type-5 (Babesia divergens, UniProt A0AAD9GDK3) | proteasome activity | Babesia divergens, parasite lysate | 1 µM, added: Suc-LLVY-AMC substrate | 93.3% |
| O=C(Nc1ccc(OCCN2CCCC2)cc1)c1cc2ccc(Cl)cc2s1 | AGER | AGE2-BSA binding, inhibitor, competitive ELISA |  | 100 µM, 60 min, added: AGE2-BSA | 97% |
| O=C(NC1CCCCC1)C(c1ccccc1)N(C(=O)CCl)c1ccc(F)cc1 (racemic) | GSTO1 | probe labelling, gel-based competitive ABPP | MDA-MB-435 soluble proteome | 100 nM, added: SE-Rh probe | 85% |
| O=C(O)CN(c1ccc(N(CC(=O)O)S(=O)(=O)c2ccccc2)cc1)S(=O)(=O)c1ccccc1 | Kelch-like ECH-associated protein 1, Kelch domain (KEAP1, Homo sapiens, UniProt Q14145) | Keap1-Nrf2 interaction, inhibitor, fluorescence polarisation |  | 50 µM | < 50% |
| COc1cc(C(=O)NC2CCC(N3CCN(CC4CCC5(CCCC5)C4)CC3)CC2)c(F)cc1Nc1ncc2c(n1)N(C1CCCC1(F)F)CC(F)(F)C(=O)N2C (stereo not shown) | BLK (Homo sapiens, UniProt P51451) | cell-free assay, TR-FRET |  | 10 µM | 0.69% |
| Oc1ccc(CCC(O)CC(O)CCc2ccc(O)cc2)cc1 (stereo not shown) | Maob (Rattus norvegicus, UniProt P19643) | enzyme activity, inhibitor |  | 100 µg/mL | 67.4 ± 6.5% |
| CC(=O)N[C@H]1NC[C@H](C(=O)O)[C@H](O)[C@@H]1O | Sialidase-2 (Homo sapiens, UniProt Q9Y3R4) | enzyme activity, inhibitor, fluorescence |  | 300 µM, pH 6 | 56% |
| OCc1cccc(O)c1O | lecA (Pseudomonas aeruginosa, UniProt Q05097) | ligand displacement, FP |  | 4 mM | 11% |
| COC(=O)CCSc1nc2n(n1)C(c1cccc(OC)c1)C(C(=O)Nc1cncc(C)c1)=C(C)N2 (stereo not shown) | MTOR (Homo sapiens, UniProt P42345) | enzyme activity, inhibitor, TR-FRET |  | 30 nM | 67.2% |
| c1n[nH]cc1-c1nc2ccc3[nH]ncc3c2c2c1CCCC2 | FLT3 ITD | enzyme activity, inhibitor, ADP detection |  | 0.1 µM | 53% |
| O=C(Nc1ccccc1)c1cc2ccc(Cl)cc2s1 | AGER | binding to AGE-BSA, competitive ELISA |  | 100 µM, 60 min | 0% |
| O=C(Nc1ccccc1Nc1ccccc1)c1nccnc1Cl | Succinate dehydrogenase complex | enzyme activity, double-antibody sandwich ELISA |  | 0.5 µM | 8.16% |
| NS(=O)(=O)c1ccc(/N=N/c2ccc(O)c3ncccc23)cc1 | GLO1 (Homo sapiens, UniProt Q04760) | enzyme activity, inhibitor |  | 25 µM | 100% |
| Clc1ccc2ccc3[n+](c2c1)[Ir-3]12([c]4ccccc4-3)([c]3ccccc3-c3ccc4ccc(Cl)cc4[n+]31)[n+]1ccccc1-c1cccc[n+]12.F[P-](F)(F)(F)(F)F | Cyclin-dependent kinase 9, with cyclin T1 (CDK9, Homo sapiens, UniProt P50750) |  |  | 1 µM | 72.4% |

A few entries again:
| Structure (SMILES) | target | test | test system | conditions | inhibition |
| --- | --- | --- | --- | --- | --- |
| COC(=O)CCSc1nc2n(n1)C(c1cccc(OC)c1)C(C(=O)Nc1cncc(C)c1)=C(C)N2 (stereo not shown) | MTOR (Homo sapiens, UniProt P42345) | enzyme activity, inhibitor, TR-FRET |  | 30 nM | 67.2% |
